Measured values collected from several papers.
Compare with care: the assays were run in different laboratories. ± gives the spread as reported.
gpmI: gpmI (Escherichia coli, UniProt P37689)
UniProt P37689, sequence (whole entry, looked up): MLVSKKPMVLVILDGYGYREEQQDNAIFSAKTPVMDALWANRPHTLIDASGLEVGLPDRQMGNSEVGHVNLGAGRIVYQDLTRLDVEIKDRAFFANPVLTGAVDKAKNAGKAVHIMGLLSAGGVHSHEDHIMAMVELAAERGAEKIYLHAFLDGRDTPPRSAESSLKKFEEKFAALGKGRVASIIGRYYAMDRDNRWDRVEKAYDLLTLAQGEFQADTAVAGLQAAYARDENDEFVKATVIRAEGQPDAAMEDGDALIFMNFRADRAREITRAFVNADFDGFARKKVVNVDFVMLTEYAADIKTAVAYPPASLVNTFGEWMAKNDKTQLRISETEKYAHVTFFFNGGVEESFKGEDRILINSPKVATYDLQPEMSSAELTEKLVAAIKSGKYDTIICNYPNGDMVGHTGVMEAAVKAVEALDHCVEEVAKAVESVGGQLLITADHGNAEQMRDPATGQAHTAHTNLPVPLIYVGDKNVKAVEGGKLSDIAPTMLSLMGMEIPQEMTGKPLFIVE
UniProt P08254, sequence (whole entry, looked up): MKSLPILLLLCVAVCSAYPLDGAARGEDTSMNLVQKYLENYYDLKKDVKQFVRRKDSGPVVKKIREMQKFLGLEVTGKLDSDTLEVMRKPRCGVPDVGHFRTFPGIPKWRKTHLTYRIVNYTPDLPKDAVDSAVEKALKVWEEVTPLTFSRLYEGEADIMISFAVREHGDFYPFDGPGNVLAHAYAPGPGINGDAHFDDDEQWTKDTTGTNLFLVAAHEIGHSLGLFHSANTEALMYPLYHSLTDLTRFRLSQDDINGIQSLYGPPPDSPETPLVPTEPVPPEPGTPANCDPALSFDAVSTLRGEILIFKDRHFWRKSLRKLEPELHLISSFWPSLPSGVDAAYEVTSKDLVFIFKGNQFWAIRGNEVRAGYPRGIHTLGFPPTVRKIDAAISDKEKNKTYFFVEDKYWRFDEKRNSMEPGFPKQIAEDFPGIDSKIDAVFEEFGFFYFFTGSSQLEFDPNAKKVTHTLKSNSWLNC
UniProt P48546, sequence (whole entry, looked up): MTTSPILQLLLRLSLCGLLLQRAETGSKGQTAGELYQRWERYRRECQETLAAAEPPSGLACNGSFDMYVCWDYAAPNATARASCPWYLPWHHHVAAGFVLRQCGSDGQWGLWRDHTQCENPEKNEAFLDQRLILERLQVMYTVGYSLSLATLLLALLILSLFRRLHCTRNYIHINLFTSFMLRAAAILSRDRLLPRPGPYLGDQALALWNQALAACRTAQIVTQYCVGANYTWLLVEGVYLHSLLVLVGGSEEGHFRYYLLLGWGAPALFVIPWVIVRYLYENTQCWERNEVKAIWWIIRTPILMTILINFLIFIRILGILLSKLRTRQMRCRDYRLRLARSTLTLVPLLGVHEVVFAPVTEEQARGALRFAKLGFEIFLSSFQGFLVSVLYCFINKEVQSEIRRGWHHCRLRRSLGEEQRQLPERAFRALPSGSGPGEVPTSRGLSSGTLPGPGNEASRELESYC
UniProt P23977, sequence (whole entry, looked up): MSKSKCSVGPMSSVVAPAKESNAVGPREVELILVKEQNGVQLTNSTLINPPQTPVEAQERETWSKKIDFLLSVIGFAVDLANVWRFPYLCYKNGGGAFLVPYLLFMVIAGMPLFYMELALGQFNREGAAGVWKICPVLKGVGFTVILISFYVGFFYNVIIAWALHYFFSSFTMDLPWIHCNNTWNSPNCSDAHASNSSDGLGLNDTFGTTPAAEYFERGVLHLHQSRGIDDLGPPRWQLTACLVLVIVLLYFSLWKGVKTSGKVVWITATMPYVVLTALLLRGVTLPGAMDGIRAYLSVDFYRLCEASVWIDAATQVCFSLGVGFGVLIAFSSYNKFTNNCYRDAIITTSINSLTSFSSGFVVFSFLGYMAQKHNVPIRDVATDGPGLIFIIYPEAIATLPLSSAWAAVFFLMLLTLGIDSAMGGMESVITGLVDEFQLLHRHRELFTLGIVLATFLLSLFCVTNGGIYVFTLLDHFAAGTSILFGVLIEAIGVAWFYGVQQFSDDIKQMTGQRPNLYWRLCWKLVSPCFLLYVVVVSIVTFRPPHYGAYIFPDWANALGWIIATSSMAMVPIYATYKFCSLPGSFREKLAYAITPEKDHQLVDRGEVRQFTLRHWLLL
UniProt P05177, sequence (whole entry, looked up): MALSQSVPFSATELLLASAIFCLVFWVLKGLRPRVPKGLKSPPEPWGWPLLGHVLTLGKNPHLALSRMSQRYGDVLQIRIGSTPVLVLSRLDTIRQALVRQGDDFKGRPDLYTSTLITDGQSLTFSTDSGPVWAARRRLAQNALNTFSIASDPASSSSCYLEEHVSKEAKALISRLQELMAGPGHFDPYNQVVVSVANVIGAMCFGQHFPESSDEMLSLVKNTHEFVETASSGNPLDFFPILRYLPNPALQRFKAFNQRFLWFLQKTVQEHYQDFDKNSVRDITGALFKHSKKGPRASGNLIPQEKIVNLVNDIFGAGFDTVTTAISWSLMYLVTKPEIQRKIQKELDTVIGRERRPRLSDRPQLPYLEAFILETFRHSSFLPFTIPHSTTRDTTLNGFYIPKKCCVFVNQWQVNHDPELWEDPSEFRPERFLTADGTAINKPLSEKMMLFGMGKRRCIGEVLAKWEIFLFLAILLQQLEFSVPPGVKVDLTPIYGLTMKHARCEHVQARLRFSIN
UniProt P41144, sequence (whole entry, looked up): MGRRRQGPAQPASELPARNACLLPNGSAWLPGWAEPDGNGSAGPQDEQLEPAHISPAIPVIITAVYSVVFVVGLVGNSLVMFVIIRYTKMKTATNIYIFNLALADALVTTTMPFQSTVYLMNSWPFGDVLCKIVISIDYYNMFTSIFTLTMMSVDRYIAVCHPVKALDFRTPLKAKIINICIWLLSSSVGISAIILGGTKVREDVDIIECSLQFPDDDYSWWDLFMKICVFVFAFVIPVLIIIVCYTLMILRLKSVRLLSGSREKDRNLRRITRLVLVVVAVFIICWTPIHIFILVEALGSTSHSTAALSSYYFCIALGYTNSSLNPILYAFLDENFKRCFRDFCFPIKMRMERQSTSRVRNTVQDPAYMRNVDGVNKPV
UniProt P40337, sequence (whole entry, looked up): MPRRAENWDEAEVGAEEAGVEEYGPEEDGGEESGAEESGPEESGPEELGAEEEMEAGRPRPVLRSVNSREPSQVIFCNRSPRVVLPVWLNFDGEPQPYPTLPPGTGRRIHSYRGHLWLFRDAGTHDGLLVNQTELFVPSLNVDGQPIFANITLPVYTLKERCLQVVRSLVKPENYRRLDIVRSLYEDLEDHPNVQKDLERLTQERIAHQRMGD
UniProt Q4VWF8, sequence (whole entry, looked up): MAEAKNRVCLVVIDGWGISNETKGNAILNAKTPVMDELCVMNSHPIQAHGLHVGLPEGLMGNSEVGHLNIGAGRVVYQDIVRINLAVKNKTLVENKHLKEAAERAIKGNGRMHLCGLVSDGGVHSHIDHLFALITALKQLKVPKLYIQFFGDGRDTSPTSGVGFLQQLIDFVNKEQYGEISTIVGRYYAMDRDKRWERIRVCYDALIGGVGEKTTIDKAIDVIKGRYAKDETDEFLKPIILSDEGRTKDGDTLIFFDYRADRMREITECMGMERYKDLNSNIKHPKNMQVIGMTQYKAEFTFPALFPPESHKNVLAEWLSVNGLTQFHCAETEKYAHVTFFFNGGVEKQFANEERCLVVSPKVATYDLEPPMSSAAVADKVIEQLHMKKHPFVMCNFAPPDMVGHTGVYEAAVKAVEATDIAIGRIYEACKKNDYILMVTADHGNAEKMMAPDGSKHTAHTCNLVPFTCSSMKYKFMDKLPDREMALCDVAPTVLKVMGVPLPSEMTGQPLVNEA
UniProt P54760, sequence (whole entry, looked up): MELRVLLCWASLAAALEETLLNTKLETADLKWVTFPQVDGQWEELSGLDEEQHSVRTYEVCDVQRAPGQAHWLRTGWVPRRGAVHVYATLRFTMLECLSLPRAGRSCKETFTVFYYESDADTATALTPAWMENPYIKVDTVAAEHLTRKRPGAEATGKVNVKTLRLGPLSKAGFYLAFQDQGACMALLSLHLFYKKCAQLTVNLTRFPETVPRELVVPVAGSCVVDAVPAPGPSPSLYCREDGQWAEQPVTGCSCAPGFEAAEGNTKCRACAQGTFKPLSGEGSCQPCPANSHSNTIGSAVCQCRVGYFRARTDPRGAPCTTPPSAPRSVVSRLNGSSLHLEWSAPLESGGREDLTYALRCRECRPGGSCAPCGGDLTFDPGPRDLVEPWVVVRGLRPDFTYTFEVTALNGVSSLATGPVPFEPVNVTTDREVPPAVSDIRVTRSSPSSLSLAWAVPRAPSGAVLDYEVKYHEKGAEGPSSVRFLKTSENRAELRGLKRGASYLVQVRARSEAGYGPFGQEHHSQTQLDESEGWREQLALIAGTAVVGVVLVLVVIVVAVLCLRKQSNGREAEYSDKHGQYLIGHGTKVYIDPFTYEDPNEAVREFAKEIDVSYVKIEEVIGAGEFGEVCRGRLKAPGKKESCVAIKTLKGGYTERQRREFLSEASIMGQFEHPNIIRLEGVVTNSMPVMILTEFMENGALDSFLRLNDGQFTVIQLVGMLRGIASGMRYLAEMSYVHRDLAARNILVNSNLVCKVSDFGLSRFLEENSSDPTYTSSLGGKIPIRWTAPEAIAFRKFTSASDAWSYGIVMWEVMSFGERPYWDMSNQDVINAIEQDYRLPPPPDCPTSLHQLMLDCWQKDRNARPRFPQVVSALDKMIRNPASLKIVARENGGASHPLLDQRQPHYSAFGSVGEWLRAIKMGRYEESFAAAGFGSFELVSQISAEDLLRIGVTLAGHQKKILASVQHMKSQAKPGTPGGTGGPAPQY

For `Cc1cc(O)cc(C)c1C[C@@H]1NC(=O)[C@H](CCCCN)NC(=O)[C@H](Cc2ccccc2)NC(=O)[C@@H](CCCNC(N)=O)NC1=O`, the Kb was 307 ± 29 nM (Kappa-type opioid receptor (OPRK1, Cavia porcellus, UniProt P41144); antagonist).
`CC[C@H](C)[C@H](NC(=O)[C@H](CO)NC(=O)[C@H](Cc1ccc(O)cc1)NC(=O)[C@H](CC(=O)O)NC(=O)[C@H](CO)NC(=O)[C@@H](NC(=O)[C@H](Cc1ccccc1)NC(=O)[C@@H](NC(=O)CNC(=O)[C@@H](N)CCC(=O)O)[C@@H](C)O)[C@@H](C)CC)C(=O)N[C@@H](C)C(=O)N[C@@H](CCSC)C(=O)N[C@@H](CC(=O)O)C(=O)N[C@@H](CCCCN)C(=O)N[C@H](C(=O)N[C@@H](Cc1c[nH]cn1)C(=O)N[C@@H](CCC(N)=O)C(=O)N[C@@H](CCC(N)=O)C(=O)N[C@@H](CC(=O)O)C(=O)N[C@@H](Cc1ccccc1)C(=O)N[C@H](C(=O)N[C@@H](CC(N)=O)C(=O)N[C@@H](Cc1c[nH]c2ccccc12)C(=O)N[C@@H](CC(C)C)C(=O)N[C@@H](CC(C)C)C(=O)N[C@@H](C)C(=O)N[C@@H](CCC(N)=O)C(=O)N[C@@H](CCCCN)C(N)=O)C(C)C)[C@@H](C)CC` gave an IC50 of 2.34 nM (Gastric inhibitory polypeptide receptor (GIPR, Homo sapiens, UniProt P48546); ligand displacement in cells, radioligand; pH 7.4).
`O=C(NCc1ccco1)C1CCN(S(=O)(=O)c2ccc(Cl)cc2)CC1` gave an IC50 of 1970 ± 440 nM (Plasmodium falciparum; parasite growth; NF54; 72 h).
With `CN1C(=O)[C@H](CCC(=O)O)NC(=O)[C@H](Cc2ccc(O)cc2)NC(=O)[C@H](CCCNC(=N)N)NC(=O)[C@@H](Cc2ccc(O)cc2)NC(=O)CSC[C@@H](C(N)=O)NC(=O)[C@H](CCCCN)NC(=O)[C@@H]2CCCN2C(=O)[C@H](CS)NC(=O)[C@H](CCC(=O)O)NC(=O)[C@H](Cc2ccc(O)cc2)N(C)C(=O)[C@H](CCCCN)NC(=O)[C@H](Cc2ccc(O)cc2)NC(=O)[C@@H]1Cc1ccc(O)cc1` the AC50 was 18600 nM (gpmI; enzyme activity, inhibitor, luminescent coupled-enzyme ATP; 15 min, 37 °C).
`CC1=CC(C)=[N+]2C1=Cc1ccc(CCC(=O)NCCOCCOCCOCCOCC(=O)N[C@H](C(=O)N3C[C@H](O)C[C@H]3C(=O)NCc3ccc(-c4scnc4C)cc3)C(C)(C)C)n1[B-]2(F)F` has a Kd of 3.61 nM (von Hippel-Lindau disease tumor suppressor, with elongin B/C (VHL, Homo sapiens, UniProt P40337); binding, TR-FRET; 30 min, total binding).
`CC(C)[C@@H]1NC(=O)[C@H](CO)N(C)C(=O)[C@H](Cc2c[nH]c3ccccc23)NC(=O)[C@H](CCC(=O)O)NC(=O)[C@H](CC(=O)O)NC(=O)[C@H](Cc2ccc(O)cc2)N(C)C(=O)[C@H](Cc2ccc(O)cc2)NC(=O)[C@H](Cc2c[nH]c3ccccc23)NC(=O)[C@H](Cc2c[nH]c3ccccc23)NC(=O)[C@H](CC(=O)O)NC(=O)CNC(=O)[C@H](CO)NC(=O)[C@@H](Cc2ccc(O)cc2)NC(=O)CSC[C@@H](C(N)=O)NC(=O)CN(C)C(=O)[C@H](Cc2ccccc2)N(C)C(=O)[C@H](C)NC1=O` gave an AC50 of 13200 nM (ipgm-1 (Brugia malayi, UniProt Q4VWF8); enzyme activity, inhibitor, luminescent coupled-enzyme ATP).
With `CCC[C@@H](C(=O)c1ccccc1)N1CCCC1` the IC50 was 136 nM (Sodium-dependent dopamine transporter (Slc6a3, Rattus norvegicus, UniProt P23977); dopamine clearance, inhibitor, fast-scan cyclic voltammetry; rat striatal slices).
For `Cc1cccc(-c2cccc(C)n2)n1.[Cl-].[Cl-].[Ru+2].c1ccc(-c2ccccn2)nc1.c1ccc(-c2ccccn2)nc1`, the EC50 was 7800 to 15600 nM (DNA binding, agarose gel electrophoresis; pUC19 plasmid DNA; photoactivated 40 J/cm^2, λ>400 nm, added: pUC19 40 µg/mL).
With `CNC(=O)C1CCN(c2ccccc2NC(=O)c2ccc(-c3cc(O)ccc3C)c(C)n2)CC1` the Ki was 0.3 nM (Ephrin type-B receptor 4 (EPHB4, Homo sapiens, UniProt P54760); cell-free assay, TR-FRET).
The AC50 of `COc1ccc(C[C@H]2C(=O)N(C)[C@@H](Cc3ccc(O)cc3)C(=O)N(C)[C@@H](Cc3ccccc3)C(=O)N[C@@H](CC(N)=O)C(=O)NCC(=O)N(C)[C@@H](Cc3ccc(O)cc3)C(=O)N[C@@H](CC(N)=O)C(=O)N[C@@H](Cc3c[nH]cn3)C(=O)N[C@@H](Cc3ccc(O)cc3)C(=O)N[C@@H](Cc3c[nH]c4ccccc34)C(=O)N[C@H](C(N)=O)CSCC(=O)N[C@H](Cc3ccc(O)cc3)C(=O)N[C@@H](CC(=O)O)C(=O)N[C@@H](CO)C(=O)N[C@@H](Cc3ccc(O)cc3)C(=O)N[C@@H](C)C(=O)N2C)cc1` is reported as 117 nM (gpmI; enzyme activity, inhibitor, luminescent coupled-enzyme ATP; 15 min, 37 °C).
The Ki of `O=P(O)(O)Oc1ccc(Oc2ccc(S(=O)(=O)CC3CS3)cc2)cc1` (racemic) is reported as 142000 nM (Stromelysin-1 (MMP3, Homo sapiens, UniProt P08254); enzyme activity, inhibitor).
With `C1N2CN3CN1CP(C2)C3.CC(C)OC(=O)C(n1cccn1)n1cccn1.F[P-](F)(F)(F)(F)F.[Cu+]` the IC50 was 156000 nM (LoVo; cell growth or viability; 3D culture).
The EC50 of `O=C(Nn1c(-c2cccc(Cl)c2)nc2ccccc2c1=O)c1ccccc1` is reported as 470 ± 50 nM (TRPM channel TRPM_PZQ (Schistosoma japonicum, UniProt A0A4Z2DYB8)).
With `CN1C(=O)[C@H](Cc2ccc(O)cc2)NC(=O)CNC(=O)[C@H](Cc2ccc(O)cc2)NC(=O)[C@H](CCC(=O)O)NC(=O)[C@H](Cc2ccc(O)cc2)N(C)C(=O)[C@H](Cc2ccc(O)cc2)N(C)C(=O)[C@H](CCC(N)=O)NC(=O)[C@H](Cc2c[nH]c3ccccc23)NC(=O)[C@H](Cc2ccc(O)cc2)NC(=O)[C@@H](Cc2ccc(O)cc2)NC(=O)CSC[C@@H](C(N)=O)NC(=O)[C@H](CCCCN)NC(=O)[C@@H]1Cc1ccc(O)cc1` the AC50 was 6310 nM (gpmI; enzyme activity, inhibitor, luminescent coupled-enzyme ATP; 15 min, 37 °C).
The Ki of `CCCCCc1cc(O)c2c(c1)OC(C)(C)C1CCC(C)=CC21` (single isomer, unassigned; (-)) is reported as 90 ± 27 nM (Cytochrome P450 1A2 (CYP1A2, Homo sapiens, UniProt P05177); enzyme activity, inhibitor; microsomes from HEK293 cells; pH 7.4, unbound, fu,inc corrected, added: phenacetin).
